{"data": "Published values gathered from unrelated publications", "note": "A part holds a random share of what one study measured. Positions count from the first letter of the parent shown."}
{"data": "Set 1", "target": "CCNE2, cyclin fold, Cln2 fusion (human)", "technique": "yeast growth competition, sequencing", "medium": "yeast", "notes": "strong parent motif", "relative to": "not given", "direction": "higher = stronger binding", "starting sequence": "PLK5 docking peptide (human); IFRKVGQRLLTQC; partner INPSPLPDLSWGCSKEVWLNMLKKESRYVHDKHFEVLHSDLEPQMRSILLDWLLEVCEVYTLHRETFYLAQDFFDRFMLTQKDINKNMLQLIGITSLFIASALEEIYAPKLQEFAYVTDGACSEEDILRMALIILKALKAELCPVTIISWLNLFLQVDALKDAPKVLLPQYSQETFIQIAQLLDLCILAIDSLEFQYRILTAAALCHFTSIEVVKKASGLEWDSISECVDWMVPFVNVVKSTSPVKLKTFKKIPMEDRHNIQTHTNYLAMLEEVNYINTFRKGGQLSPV"}
{"Variant": "AFRKVGQRLLTQC [I1A]", "normalised enrichment score": 1.02}
{"Variant": "IFRKVGQRLATQC [L10A]", "normalised enrichment score": 0.914}
{"Variant": "IFRKVGQRLLAQC [T11A]", "normalised enrichment score": 0.546}
{"Variant": "IFRKVGQRLLTQA [C13A]", "normalised enrichment score": 1.48}
{"Variant": "IFRKVAQRLLTQC [G6A]", "normalised enrichment score": 0.686}
{"Variant": "IFRKVGQALLTQC [R8A]", "normalised enrichment score": 1.12}
{"data": "Set 2", "target": "Centromere-binding protein 1, full length, N-terminal tag (CBF1, Saccharomyces cerevisiae, UniProt P17106, residues 1-351)", "technique": "protein-binding microarray", "form": "double-stranded DNA, one strand shown", "medium": "in vitro", "concentration": "0.8 µM", "notes": "whole 60-bp probe, no competitor", "direction": "higher = stronger binding", "shared flanks, not repeated": "… GTCTTGATTCGCTTGACGCTGCTG", "UniProt P17106, sequence (whole entry, looked up)": "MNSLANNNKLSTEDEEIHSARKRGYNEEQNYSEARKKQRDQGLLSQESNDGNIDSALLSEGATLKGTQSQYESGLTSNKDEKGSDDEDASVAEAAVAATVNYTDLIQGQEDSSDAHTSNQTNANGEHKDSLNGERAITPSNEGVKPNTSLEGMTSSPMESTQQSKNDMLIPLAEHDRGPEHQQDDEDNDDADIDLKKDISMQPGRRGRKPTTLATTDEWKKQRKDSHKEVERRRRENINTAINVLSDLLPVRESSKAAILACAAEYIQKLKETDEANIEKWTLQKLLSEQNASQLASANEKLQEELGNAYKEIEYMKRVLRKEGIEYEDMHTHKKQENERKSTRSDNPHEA"}
{"Oligonucleotide": "GAAAATTGGCACTTCAACGTGTATGGAAGTTGCTAG", "fluorescence intensity [a.u.]": 529}
{"Oligonucleotide": "CTACCCACGCCGCGTGGTGCCTTTGTTCCTTGGTTC", "fluorescence intensity [a.u.]": 573}
{"Oligonucleotide": "CTACTCATATGTGCTCTCGTGCTTGTTTATCCTTTC", "fluorescence intensity [a.u.]": 675}
{"Oligonucleotide": "CTATATATTTCGTATGTCATGTGGAGTATATATTTC", "fluorescence intensity [a.u.]": 1340}
{"Oligonucleotide": "CCTAACTACTATAAGGTCATGAGATAGCTTCGTACA", "fluorescence intensity [a.u.]": 696}
{"Oligonucleotide": "GAATCTATTATCAAGCATGATCACCATCATCAATAG", "fluorescence intensity [a.u.]": 594}
{"Oligonucleotide": "CCTAACTACTATAAGACCACCACATAGCTTCGTACA", "fluorescence intensity [a.u.]": 555}
{"Oligonucleotide": "CTAACTTTGAACGATCACCTCTGCAATGTGACATTC", "fluorescence intensity [a.u.]": 536}
{"Oligonucleotide": "GAATAACATTAACAGCTGATGACTTGAAGTATATAG", "fluorescence intensity [a.u.]": 612}
{"Oligonucleotide": "TGTACGAAGCTATCGCATGTTCTTATAGTAGTTAGG", "fluorescence intensity [a.u.]": 537}
{"Oligonucleotide": "CCTAACTACTATAATCTCAACTGATAGCTTCGTACA", "fluorescence intensity [a.u.]": 514}
{"Oligonucleotide": "CTAGTTCCGGGTAGTCACATGGAAACAATGGCATTC", "fluorescence intensity [a.u.]": 2170}
{"Oligonucleotide": "CTAAATGGTCCAAAGCATGTGCTAAACTGCCACTTC", "fluorescence intensity [a.u.]": 597}
{"Oligonucleotide": "CTAGTGTCAAATGTGGACATGATGACATAAGGTTTC", "fluorescence intensity [a.u.]": 532}
{"data": "Set 3", "target": "Ras GTPase-activating protein-binding protein 1, full length (G3BP1, Homo sapiens, UniProt Q13283)", "technique": "RNA Bind-n-Seq", "form": "RNA", "medium": "in vitro", "concentration": "200 nM", "notes": "whole 134-nt RNA, ends assumed", "together with": "150 mM KCl", "relative to": "input library", "direction": "higher = stronger binding", "shared flanks, not repeated": "GGGAGUUCUACAGUCCGACGAUC … UGGAAUUCUCGGGUGUCAAGG", "UniProt Q13283, sequence (whole entry, looked up)": "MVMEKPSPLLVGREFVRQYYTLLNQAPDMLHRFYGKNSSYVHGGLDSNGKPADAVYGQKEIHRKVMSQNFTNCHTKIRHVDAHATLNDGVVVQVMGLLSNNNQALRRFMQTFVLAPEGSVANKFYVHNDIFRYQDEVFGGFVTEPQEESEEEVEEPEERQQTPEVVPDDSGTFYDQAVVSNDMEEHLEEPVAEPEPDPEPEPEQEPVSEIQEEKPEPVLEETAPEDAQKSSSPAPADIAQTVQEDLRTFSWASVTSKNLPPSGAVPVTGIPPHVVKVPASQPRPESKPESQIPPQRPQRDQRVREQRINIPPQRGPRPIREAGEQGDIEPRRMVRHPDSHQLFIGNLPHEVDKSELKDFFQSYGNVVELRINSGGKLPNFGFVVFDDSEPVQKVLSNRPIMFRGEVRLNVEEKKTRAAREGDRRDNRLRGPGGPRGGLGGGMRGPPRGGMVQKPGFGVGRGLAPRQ"}
{"Oligonucleotide": "GUCCUGUGCUACACAUCGUAUGUACCGAAUCGGUUUUUUUGGAAAAAGGUUUUUUUGGAAAGUAUUAUGUUACGCCGUUCGGAUCUGCAC", "log2 enrichment": -1.39}
{"Oligonucleotide": "UAACUUUAGAGGAGGAUCUGAUGGAUAUGGCAGUGGACGUGGAUUUGGGGAUGGCUAUAAUGGGUAUGGAGGAGGACCUGGAGGUGGCAU", "log2 enrichment": 0.272}
{"Oligonucleotide": "UCCUGUGCUACACAUCGUAUGUACCGAAUCGGGGCCCCCCGGCCCCCCGGCCCCCCGGGAAAGUAUUAUGUUACGCCGUUCGGAUCUGCA", "log2 enrichment": -0.314}
{"Oligonucleotide": "UCAAGUCCUGUGCUACACAUCGUAUGUACCGAAUCGGGGAAGGGAAGGGGAAGGGAAAGUAUUAUGUUACGCCGUUCGGAUCUGCACUUC", "log2 enrichment": 0.919}
{"Oligonucleotide": "CCUCAAGUCCUGUGCUACACAUCGUAUGUACCGAAUCGGGGCGGCGGGCGGGAAAGUAUUAUGUUACGCCGUUCGGAUCUGCACUUCCAG", "log2 enrichment": 0.866}
{"data": "Set 4", "target": "ABI1, truncated, D143A, DHFR fusion (Arabidopsis thaliana)", "technique": "DHFR PCA, deep sequencing", "medium": "yeast", "notes": "methotrexate growth selection, single substitutions", "together with": "(+)-ABA 0.0091 µM", "relative to": "wild-type fitted maximum", "direction": "higher = stronger binding", "starting sequence": "PYL1, truncated, DHFR fusion (Arabidopsis thaliana); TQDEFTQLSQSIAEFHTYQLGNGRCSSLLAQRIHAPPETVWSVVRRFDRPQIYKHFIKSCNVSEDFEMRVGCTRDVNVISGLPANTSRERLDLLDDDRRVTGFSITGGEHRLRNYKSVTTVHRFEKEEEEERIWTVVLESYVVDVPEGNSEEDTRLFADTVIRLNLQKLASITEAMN"}
{"Variant": "Q19Y", "relative binding score": "3.9%"}
{"Variant": "F47K", "relative binding score": "0.289%"}
{"Variant": "Y18F", "relative binding score": "-1.21%"}
{"Variant": "Y141L", "relative binding score": "-2.2%"}
{"Variant": "E139A", "relative binding score": "-1.2%"}
{"Variant": "T119Y", "relative binding score": "-9.05%"}
{"Variant": "E4T", "relative binding score": "12.4%"}
{"Variant": "R155H", "relative binding score": "-3.31%"}
{"Variant": "S59A", "relative binding score": "13.8%"}
{"Variant": "E14Y", "relative binding score": "0.0916%"}
{"Variant": "G81D", "relative binding score": "7.3%"}
{"Variant": "D65K", "relative binding score": "13.8%"}
{"Variant": "T173K", "relative binding score": "-8.58%"}
{"Variant": "T160Q", "relative binding score": "3.76%"}
{"Variant": "G102K", "relative binding score": "-1.7%"}
{"Variant": "V142P", "relative binding score": "-2.23%"}
{"Variant": "R155C", "relative binding score": "2.43%"}
{"Variant": "V137L", "relative binding score": "0.303%"}
{"data": "Set 5", "target": "RNA binding protein fox-1 homolog 2, RRM domain, GST-SBP tag (RBFOX2, Homo sapiens, UniProt O43251-10, residues 100-194)", "technique": "RNA Bind-n-Seq", "form": "RNA", "medium": "in vitro", "concentration": "365 nM", "notes": "natural RNA segment, single round, ends assumed", "relative to": "no-protein control", "direction": "higher = stronger binding", "shared flanks, not repeated": "GGGAGUUCUACAGUCCGACGAUC … UGGAAUUCUCGGGUGCCAA", "Target sequence (chain)": "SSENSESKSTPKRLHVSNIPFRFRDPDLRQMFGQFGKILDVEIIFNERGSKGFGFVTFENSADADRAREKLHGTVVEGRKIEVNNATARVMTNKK"}
{"Oligonucleotide": "CAAUCCUGACUCUGGCUAUUCGCUUCCCACCCUCUCCUUUCACUGUGAUGUGUUCCAGGUUUAGCCUAGGGUCCAUUCUUGUCACUGUUUCUUACUGUGUAGAGUACCUU", "RBNS enrichment (R)": 0.321}
{"Oligonucleotide": "AAUGCUGGUAUUUGAUUUCCUGUGUGUGUUGCCCUGGCAUUAAGGGCAUUUUACCCUUGCAGUUUUACUAAAACACUGAAAAAUAUUCCAAGCUUCAUAUUAACCCUACC", "RBNS enrichment (R)": 0.56}
{"Oligonucleotide": "UUUUAUUUAGAUUUUGUUUUUCAUCUUACUAUGUACCAGUGGCACUUAACCAAAAGAUACAGUAACAUAGCCAUGUACUGUGGUUGGGACAGAUACAGUCUCCUUGGCUU", "RBNS enrichment (R)": 0.437}
{"Oligonucleotide": "UUAAUGUUUCUUAGAGCCAAGUGUCUUUUAAACAUUAUUUUUUAUUUCUGAUUUCAUAAUUCAGAACUAAAUUUUUCAUAGAAGUGUUGAGCCAUGCUACAGUUAGUCUU", "RBNS enrichment (R)": 0.43}
{"Oligonucleotide": "UGCAGUACAACUGGAAGCCAAAACAAGGUGGAAGAUGUCCUGAAUUAAGAUGUUUUCACCACAUUGUAUUACAGAGACAGCCAAUAAAUCUACUAUUUGAUUUCAAUAUG", "RBNS enrichment (R)": 0.22}
{"Oligonucleotide": "CAUGAUGACAACUACAGAAAAACCAGAGGCAGCUUCUUUGCCAAGACCUUUCAAAGCCAUUUUAGGCUGUUAGGGGCAGUGGAGGUAGAAUGACUCCUUGGGUAUUAGAG", "RBNS enrichment (R)": 0.449}
{"Oligonucleotide": "UGCUCUGCUCGGAGAUGGGGCCCGAGGGGCCCGUUUUGUUCAGAAAUAUAUUUUAAAUGUUUAGUAAUUGGCGUGCAGUUGUCUUUGAUUGAGUAUGUAGGUUUCAUCUG", "RBNS enrichment (R)": 1.37}
{"Oligonucleotide": "GGGCUGCAGAGCAGCGUCUAGUGGACAUUCCGAGGCCAGCUCUUGGGACUGUGUAGCCUCUGCCUCCCAGGAUGUUGUCUUUCAUGUGGGAAUUUUGACAGGAUUUCUAG", "RBNS enrichment (R)": 0.451}
{"note": "Some of these lines once more (set 4):"}
{"Variant": "E14Y", "relative binding score": "0.0916%"}
{"Variant": "G81D", "relative binding score": "7.3%"}
{"Variant": "D65K", "relative binding score": "13.8%"}
{"Variant": "T173K", "relative binding score": "-8.58%"}
